Measured values pooled from the literature.
A part holds a random share of what one study measured. Positions count from the first letter of the parent shown.

Block 1
Target: UBE2Q2 UBC core domain (UniProt Q8WVN8)
Chain of UniProt Q8WVN8 (whole entry, looked up): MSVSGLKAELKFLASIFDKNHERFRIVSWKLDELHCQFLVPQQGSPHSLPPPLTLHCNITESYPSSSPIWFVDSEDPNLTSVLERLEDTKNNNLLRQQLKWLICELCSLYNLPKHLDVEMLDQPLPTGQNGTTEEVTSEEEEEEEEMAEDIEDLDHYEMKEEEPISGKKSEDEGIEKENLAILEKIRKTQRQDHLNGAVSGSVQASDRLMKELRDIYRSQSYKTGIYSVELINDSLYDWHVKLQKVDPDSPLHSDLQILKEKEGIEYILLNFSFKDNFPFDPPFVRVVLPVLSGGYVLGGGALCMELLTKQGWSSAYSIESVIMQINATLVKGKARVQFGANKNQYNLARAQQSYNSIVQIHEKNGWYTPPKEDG
Technique: yeast two-hybrid
Sample: yeast
Setting: mostly zero background
Baseline: not given
Reading: higher = stronger interaction
B1: RNF24 RING domain (UniProt Q9Y225); chain KVKELNLHELCAVCLEDFKPRDELGICPCKHAFHRKCLIKWLEVRKVCPLCNMPVLQLAQLH
B2: RNF135 RING domain (UniProt Q8IUD6); chain PVWLAEDDLGCIICQGLLDWPATLPCGHSFCRHCLEALWGARDARRWACPTCRQGAAQQPHLR
B3: DTX1 RING domain (UniProt Q86Y01); chain QKVKNPPDEDCTICMERLVTASGYEGVLRHKGVRPELVGRLGRCGHMYHLLCLVAMYSNGNKDGSLQCPTCKAIYGEKTGTQ
B4: PRKN RING domain (UniProt O60260); chain LIATNSRNITCITCTDVRSPVLVFQCNSRHVICLDCFHLYCVTRLNDRQFVHDPQLGYSLPCVAGCPNSLIKELHH
Under “lacZ reporter activity”, `B1 (RNF24 RING domain)` is recorded as 0.
For `NTAPSLTVPECAICLQTCVHPVSLPCKHVFCYLCVKGASWLGKRCALCRQEIPEDFLDK (RNF146 RING domain (UniProt Q9NTX7))`, “lacZ reporter activity” read 0.
`B2 (RNF135 RING domain)`: “lacZ reporter activity” 0.
Under “lacZ reporter activity”, `ALDRLEKLLRCSRCTNILREPVCLGGCEHIFCSNCVSDCIGTGCPVCYTPAWIQDLKI (BARD1 RING domain (UniProt Q99728))` is recorded as 0.
`B3 (DTX1 RING domain)`: “lacZ reporter activity” 0.
Under “lacZ reporter activity”, `B4 (PRKN RING domain)` is recorded as 0.

Block 2
Target: Histone acetyltransferase KAT6A, winged helix 2, GST fusion (KAT6A, Homo sapiens, UniProt Q92794, residues 85-181)
Technique: protein binding microarray
Molecule type: double-stranded DNA, one strand shown
Sample: in vitro
Tested at: not given
Setting: 8-mer, flanks averaged, mean of 2 arrays, mostly near background
Baseline: not given
Reading: higher = stronger binding
Residues (chain): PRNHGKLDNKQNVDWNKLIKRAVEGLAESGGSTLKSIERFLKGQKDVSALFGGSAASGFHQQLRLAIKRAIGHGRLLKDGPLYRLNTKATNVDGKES
The E-score of `TAGATGCA` is reported as -0.0949.
`CAGTTCCG` gave an E-score of -0.00208.
With `CCGCTCAG` the E-score was 0.00058.
For `CCCAGGCA`, the E-score was 0.161.
`CGATTTTC` gave an E-score of 0.159.
`AAATTGAT` has an E-score of 0.0874.
With `CGTAACAC` the E-score was -0.0239.
The E-score of `CGGGGGGC` is reported as 0.0453.
With `GTGTCGTA` the E-score was -0.0172.
`CCAACGGG` has an E-score of 0.125.
`CACGTTCG` gave an E-score of -0.207.
The E-score of `CAAAAAGG` is reported as 0.054.
With `CTACTTAC` the E-score was -0.224.
`AAGATTGG` gave an E-score of -0.0516.
For `ATTGGGAA`, the E-score was -0.054.
With `CTATAACC` the E-score was -0.302.
`CCTAGAGC` has an E-score of 0.118.
With `CCCGAAAC` the E-score was -0.0139.
`CACTGATA` has an E-score of -0.0591.
`GACCTGTA` has an E-score of -0.287.
`GCGTCCGA` has an E-score of 0.173.

Block 3
Target: ABI1, truncated, D143A, DHFR fusion (Arabidopsis thaliana)
Technique: DHFR PCA, deep sequencing
Sample: yeast
Setting: methotrexate growth selection, single substitutions
Together with: (+)-ABA 0.11 µM
Baseline: wild-type fitted maximum
Reading: higher = stronger binding
Starting sequence: PYL1, truncated, DHFR fusion (Arabidopsis thaliana); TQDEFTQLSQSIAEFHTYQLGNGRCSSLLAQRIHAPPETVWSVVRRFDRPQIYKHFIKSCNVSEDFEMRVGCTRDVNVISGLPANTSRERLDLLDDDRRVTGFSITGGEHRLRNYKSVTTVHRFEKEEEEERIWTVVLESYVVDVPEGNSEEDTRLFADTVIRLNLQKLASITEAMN; partner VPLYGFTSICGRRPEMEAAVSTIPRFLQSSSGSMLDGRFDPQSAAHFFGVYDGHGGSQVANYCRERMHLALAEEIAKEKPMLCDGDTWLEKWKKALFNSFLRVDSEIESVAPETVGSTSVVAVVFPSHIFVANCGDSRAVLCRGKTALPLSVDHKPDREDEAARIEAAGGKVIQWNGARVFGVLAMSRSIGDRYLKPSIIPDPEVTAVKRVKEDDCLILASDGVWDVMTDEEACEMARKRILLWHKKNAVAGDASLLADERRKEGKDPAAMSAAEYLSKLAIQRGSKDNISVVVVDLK
For `R69L`, “relative binding score” read 5.59%.
For `D95K`, “relative binding score” read -2.94%.
`L93A`: “relative binding score” 3.22%.
`I105W`: “relative binding score” -5.37%.
`E128P`: “relative binding score” 14.6%.
`Q51T`: “relative binding score” -0.546%.
`F103V`: “relative binding score” -6.78%.
`D144N`: “relative binding score” 0.0287%.
`I33E` — result for “relative binding score”: 3.49%.
Under “relative binding score”, `D75L` is recorded as 44.1%.
Under “relative binding score”, `R74A` is recorded as 1.1%.
`V136L`: “relative binding score” 25.9%.
`R32A` — result for “relative binding score”: 20.3%.
For `G148A`, “relative binding score” read -1.27%.
Under “relative binding score”, `I162Q` is recorded as 0.769%.
For `S150W`, “relative binding score” read -8.14%.
For `I105S`, “relative binding score” read -1.26%.

Block 4
Target: CCNA1, cyclin fold, Cln2 fusion (human)
Technique: yeast growth competition, sequencing
Sample: yeast
Setting: weak parent motif
Baseline: not given
Reading: higher = stronger binding
Starting sequence: MASTL docking peptide (human); PMIAKNLMCELDE; partner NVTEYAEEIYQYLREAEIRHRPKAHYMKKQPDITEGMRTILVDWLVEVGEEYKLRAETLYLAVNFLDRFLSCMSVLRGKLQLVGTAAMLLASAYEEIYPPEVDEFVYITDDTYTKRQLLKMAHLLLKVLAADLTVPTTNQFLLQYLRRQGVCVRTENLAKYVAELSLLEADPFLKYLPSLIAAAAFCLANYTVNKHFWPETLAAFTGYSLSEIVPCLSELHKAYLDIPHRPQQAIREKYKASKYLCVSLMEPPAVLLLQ
Under “normalised enrichment score”, `PMCAKNLMCELDE [I3C]` is recorded as 0.0757.
For `PMIAKNLVCELDE [M8V]`, “normalised enrichment score” read 0.235.
`PMIAKKLMCELDE [N6K]`: “normalised enrichment score” 0.346.
`PMVAKNLMCELDE [I3V]` — result for “normalised enrichment score”: -0.222.
For `PMIANNLMCELDE [K5N]`, “normalised enrichment score” read 0.162.
Under “normalised enrichment score”, `PMIAKNLMCEVDE [L11V]` is recorded as 0.0972.
Under “normalised enrichment score”, `PMIAKNSMCELDE [L7S]` is recorded as 0.0927.
Under “normalised enrichment score”, `PFIAKNLMCELDE [M2F]` is recorded as 0.236.
Under “normalised enrichment score”, `PPIAKNLMCELDE [M2P]` is recorded as 0.123.
Under “normalised enrichment score”, `PMIAKNLMCALDE [E10A]` is recorded as 0.313.
Under “normalised enrichment score”, `PMIMKNLMCELDE [A4M]` is recorded as -0.215.
`PMIAKNLMCRLDE [E10R]` — result for “normalised enrichment score”: 0.171.
`PGIAKNLMCELDE [M2G]`: “normalised enrichment score” 0.222.
For `PMIAKNLMRELDE [C9R]`, “normalised enrichment score” read 0.405.
For `PMIAKNLMCELQE [D12Q]`, “normalised enrichment score” read 0.293.
`PMIAKFLMCELDE [N6F]`: “normalised enrichment score” -0.193.
`PMIAKNLMGELDE [C9G]`: “normalised enrichment score” 0.0505.
`PMIFKNLMCELDE [A4F]` — result for “normalised enrichment score”: 0.0493.
Under “normalised enrichment score”, `PMIAFNLMCELDE [K5F]` is recorded as -0.0222.

Excerpt of the above (block 3):
Under “relative binding score”, `D75L` is recorded as 44.1%.
Under “relative binding score”, `R74A` is recorded as 1.1%.
`V136L`: “relative binding score” 25.9%.
`R32A` — result for “relative binding score”: 20.3%.
For `G148A`, “relative binding score” read -1.27%.
Under “relative binding score”, `I162Q` is recorded as 0.769%.
For `S150W`, “relative binding score” read -8.14%.
For `I105S`, “relative binding score” read -1.26%.
